{"data": "Measured values from different studies", "note": "Every numbered part comes from another study and shows a few of its results, in no order. Values joined by “and” are separate records of one study, mostly repeats; a detail may differ.", "UniProt P00519, sequence (whole entry, unmodified, looked up)": "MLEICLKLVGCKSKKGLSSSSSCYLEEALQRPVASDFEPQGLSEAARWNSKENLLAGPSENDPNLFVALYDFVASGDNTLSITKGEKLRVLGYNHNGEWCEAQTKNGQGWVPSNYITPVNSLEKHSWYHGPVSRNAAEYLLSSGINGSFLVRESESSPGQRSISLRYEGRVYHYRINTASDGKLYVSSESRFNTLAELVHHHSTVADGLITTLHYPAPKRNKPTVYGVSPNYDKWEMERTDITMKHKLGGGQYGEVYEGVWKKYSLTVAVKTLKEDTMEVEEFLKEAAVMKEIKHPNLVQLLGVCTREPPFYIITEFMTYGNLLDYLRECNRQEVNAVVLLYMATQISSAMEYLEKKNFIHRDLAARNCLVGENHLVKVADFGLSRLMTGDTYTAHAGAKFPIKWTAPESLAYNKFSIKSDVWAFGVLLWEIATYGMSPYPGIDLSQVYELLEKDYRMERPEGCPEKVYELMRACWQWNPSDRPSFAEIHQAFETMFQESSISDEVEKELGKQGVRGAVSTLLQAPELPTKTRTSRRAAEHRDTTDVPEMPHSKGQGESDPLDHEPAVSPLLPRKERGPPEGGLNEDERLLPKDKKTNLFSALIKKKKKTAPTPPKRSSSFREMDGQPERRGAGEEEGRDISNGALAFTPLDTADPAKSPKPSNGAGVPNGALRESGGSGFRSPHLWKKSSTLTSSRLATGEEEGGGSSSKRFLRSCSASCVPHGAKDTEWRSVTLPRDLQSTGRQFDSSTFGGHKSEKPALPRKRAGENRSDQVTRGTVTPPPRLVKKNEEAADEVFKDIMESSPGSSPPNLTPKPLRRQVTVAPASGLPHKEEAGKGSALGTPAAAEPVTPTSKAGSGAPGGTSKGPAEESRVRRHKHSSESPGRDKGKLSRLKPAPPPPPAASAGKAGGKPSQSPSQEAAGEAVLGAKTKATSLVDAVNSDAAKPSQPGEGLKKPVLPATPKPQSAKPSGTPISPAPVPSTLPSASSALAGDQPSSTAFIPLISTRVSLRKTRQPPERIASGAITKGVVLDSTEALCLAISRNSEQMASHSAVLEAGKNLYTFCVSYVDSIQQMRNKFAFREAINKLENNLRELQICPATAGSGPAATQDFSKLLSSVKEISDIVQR", "UniProt P29597, sequence (whole entry, looked up)": "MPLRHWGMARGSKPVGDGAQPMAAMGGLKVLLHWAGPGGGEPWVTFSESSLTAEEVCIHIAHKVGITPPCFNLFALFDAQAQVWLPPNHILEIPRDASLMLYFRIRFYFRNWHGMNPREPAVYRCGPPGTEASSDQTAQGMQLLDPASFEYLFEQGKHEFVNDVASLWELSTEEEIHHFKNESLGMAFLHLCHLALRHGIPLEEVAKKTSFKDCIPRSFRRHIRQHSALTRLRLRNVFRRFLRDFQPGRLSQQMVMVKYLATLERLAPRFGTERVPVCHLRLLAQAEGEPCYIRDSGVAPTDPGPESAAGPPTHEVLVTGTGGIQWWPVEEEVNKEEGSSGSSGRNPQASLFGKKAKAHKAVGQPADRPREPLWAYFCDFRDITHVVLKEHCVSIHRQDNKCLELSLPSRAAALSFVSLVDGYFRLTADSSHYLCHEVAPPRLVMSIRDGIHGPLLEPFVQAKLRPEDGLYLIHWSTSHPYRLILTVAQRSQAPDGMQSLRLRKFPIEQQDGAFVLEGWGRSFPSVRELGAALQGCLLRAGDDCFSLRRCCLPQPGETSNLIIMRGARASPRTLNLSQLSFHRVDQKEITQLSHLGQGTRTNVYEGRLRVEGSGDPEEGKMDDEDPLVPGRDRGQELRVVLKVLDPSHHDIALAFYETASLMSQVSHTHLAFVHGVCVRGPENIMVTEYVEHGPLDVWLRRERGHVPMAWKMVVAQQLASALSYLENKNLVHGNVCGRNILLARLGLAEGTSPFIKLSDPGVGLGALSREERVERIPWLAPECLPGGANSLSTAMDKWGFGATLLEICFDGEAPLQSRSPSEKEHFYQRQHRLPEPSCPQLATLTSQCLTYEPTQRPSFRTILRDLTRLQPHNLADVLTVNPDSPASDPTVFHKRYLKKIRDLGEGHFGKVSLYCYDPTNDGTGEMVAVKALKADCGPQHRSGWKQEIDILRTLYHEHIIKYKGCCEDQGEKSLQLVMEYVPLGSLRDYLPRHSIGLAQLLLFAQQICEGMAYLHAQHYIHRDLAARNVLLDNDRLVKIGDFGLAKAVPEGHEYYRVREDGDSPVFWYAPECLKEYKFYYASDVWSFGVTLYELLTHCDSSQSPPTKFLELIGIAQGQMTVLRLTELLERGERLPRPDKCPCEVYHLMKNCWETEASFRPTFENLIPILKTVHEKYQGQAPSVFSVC", "UniProt P16234, sequence (whole entry, looked up)": "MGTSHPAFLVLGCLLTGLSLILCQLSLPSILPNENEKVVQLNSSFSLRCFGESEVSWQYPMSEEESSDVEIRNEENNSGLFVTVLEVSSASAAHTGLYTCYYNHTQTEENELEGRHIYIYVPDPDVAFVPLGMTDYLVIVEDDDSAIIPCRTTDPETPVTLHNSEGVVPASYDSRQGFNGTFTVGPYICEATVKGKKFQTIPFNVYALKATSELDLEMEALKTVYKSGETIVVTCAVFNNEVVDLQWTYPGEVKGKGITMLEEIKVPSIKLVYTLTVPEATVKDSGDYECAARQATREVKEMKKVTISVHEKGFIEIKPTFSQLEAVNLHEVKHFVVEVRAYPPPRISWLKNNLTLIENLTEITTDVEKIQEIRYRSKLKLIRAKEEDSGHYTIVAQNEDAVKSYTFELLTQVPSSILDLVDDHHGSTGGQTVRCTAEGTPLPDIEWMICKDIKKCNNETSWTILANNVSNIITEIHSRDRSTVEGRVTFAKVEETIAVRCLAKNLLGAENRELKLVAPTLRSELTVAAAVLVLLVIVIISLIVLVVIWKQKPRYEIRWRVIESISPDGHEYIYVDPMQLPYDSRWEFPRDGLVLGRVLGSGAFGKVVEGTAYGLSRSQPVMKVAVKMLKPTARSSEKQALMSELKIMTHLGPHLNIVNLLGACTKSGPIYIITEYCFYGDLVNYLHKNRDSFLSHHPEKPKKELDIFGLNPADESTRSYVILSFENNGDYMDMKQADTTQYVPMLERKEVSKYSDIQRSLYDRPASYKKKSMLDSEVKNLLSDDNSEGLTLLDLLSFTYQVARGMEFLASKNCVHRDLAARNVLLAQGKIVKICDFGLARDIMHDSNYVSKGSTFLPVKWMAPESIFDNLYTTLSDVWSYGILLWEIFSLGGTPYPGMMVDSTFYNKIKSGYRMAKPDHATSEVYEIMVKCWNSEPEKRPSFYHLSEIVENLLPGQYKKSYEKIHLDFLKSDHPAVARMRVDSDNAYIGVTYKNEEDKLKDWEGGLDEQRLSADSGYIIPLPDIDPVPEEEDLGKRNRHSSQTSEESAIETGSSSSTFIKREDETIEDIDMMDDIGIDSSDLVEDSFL", "UniProt P78356, sequence (whole entry, looked up)": "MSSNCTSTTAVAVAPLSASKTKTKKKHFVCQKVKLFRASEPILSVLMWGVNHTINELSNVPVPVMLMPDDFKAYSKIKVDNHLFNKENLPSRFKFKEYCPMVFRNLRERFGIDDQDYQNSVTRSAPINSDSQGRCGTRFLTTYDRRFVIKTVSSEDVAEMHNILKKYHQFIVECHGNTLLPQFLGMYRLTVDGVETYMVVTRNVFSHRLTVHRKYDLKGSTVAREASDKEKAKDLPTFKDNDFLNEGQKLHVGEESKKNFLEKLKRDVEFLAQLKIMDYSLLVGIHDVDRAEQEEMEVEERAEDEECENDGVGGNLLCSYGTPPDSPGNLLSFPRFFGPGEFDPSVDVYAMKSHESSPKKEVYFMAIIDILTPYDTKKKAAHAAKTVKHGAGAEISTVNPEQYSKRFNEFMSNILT", "UniProt P31152, sequence (whole entry, looked up)": "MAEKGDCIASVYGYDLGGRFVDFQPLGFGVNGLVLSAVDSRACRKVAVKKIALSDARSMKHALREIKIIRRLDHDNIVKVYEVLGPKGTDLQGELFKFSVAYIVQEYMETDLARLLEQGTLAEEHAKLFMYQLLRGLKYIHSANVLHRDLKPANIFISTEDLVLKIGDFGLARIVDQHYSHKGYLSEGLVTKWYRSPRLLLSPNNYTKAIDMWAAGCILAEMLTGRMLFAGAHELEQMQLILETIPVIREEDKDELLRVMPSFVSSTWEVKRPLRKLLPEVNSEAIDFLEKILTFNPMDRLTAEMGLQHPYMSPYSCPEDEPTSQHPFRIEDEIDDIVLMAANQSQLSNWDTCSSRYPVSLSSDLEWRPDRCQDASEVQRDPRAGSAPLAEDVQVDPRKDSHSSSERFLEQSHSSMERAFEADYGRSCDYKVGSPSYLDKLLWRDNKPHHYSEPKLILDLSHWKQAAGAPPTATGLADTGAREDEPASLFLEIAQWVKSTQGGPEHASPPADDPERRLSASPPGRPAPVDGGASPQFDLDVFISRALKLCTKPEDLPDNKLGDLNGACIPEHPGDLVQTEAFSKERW"}
{"data": "Sample 1", "Structure (SMILES)": "Cn1cnc(Cn2ccc3ccc(CNCc4[nH]c5ccccc5c4[C@H]4NC(=O)c5ccc(O)cc54)cc32)c1", "read-out": "binding", "mode": "competitor", "technique": "NanoBRET", "cell line": "HEK293", "KRAS G12C": "GTPase KRas (KRAS, Homo sapiens, UniProt P01116, G12C)", "KRAS": "GTPase KRas (KRAS, Homo sapiens, UniProt P01116)"}
{"target": "KRAS G12C", "setting": "82.2 nM, 2 h", "scale": "reference: vehicle and 20 µM BI compound", "normalized BRET": "111% and 108% and 116%"}
{"target": "KRAS G12C", "setting": "247 nM, 3 h", "scale": "reference: vehicle and 20 µM BI compound", "normalized BRET": "94.2% and 96.3% and 96.8% and 96%"}
{"target": "KRAS G12C", "setting": "247 nM, 0.5 h", "scale": "reference: vehicle and 20 µM BI compound", "normalized BRET": "97.2% and 87.4% and 87%"}
{"target": "KRAS G12C", "setting": "2.22 µM, 0.5 h", "scale": "reference: vehicle and 20 µM BI compound", "normalized BRET": "32.9% and 24.7% and 25.8% and 22.4%"}
{"target": "KRAS", "setting": "9.14 nM", "normalized BRET": "100% and 97% and 98.1% and 87.1%"}
{"target": "KRAS", "setting": "2.22 µM", "normalized BRET": "11.6% and 14.1% and 10.3% and 10.2%"}
{"target": "KRAS G12C", "setting": "9.14 nM, 2 h", "scale": "reference: vehicle and 20 µM BI compound", "normalized BRET": "93.8% and 114% and 109% and 102%"}
{"target": "KRAS G12C", "setting": "6.67 µM, 1 h", "scale": "reference: vehicle and 20 µM BI compound", "normalized BRET": "3.84% and 3.87% and 5.66% and 5.7%"}
{"data": "Sample 2", "Structure (SMILES)": "CN1CCN(C(=O)c2ccc(NC(=O)Nc3ccc(N(C)c4ccnc(Nc5ccc(CS(C)(=O)=O)cc5)n4)cc3)cc2)CC1"}
{"target": "Mitogen-activated protein kinase 4 (MAPK4, Homo sapiens, UniProt P31152)", "assay": "binding", "setting": "1 µM", "remaining binding": "100%"}
{"target": "Ephrin type-A receptor 6 (EPHA6, Homo sapiens, UniProt Q9UF33)", "assay": "binding, competition with immobilised ligand", "setting": "1 µM", "remaining binding": "76%"}
{"target": "Ephrin type-A receptor 4 (EPHA4, Homo sapiens, UniProt P54764)", "assay": "binding, competition with immobilised ligand", "setting": "1 µM", "remaining binding": "85%"}
{"target": "Leukocyte tyrosine kinase receptor (LTK, Homo sapiens, UniProt P29376)", "assay": "binding", "setting": "1 µM", "remaining binding": "85%"}
{"target": "Non-receptor tyrosine-protein kinase TYK2, JH2 (TYK2, Homo sapiens, UniProt P29597)", "assay": "binding, competition with immobilised ligand", "setting": "1 µM", "remaining binding": "6.5%"}
{"target": "Mitogen-activated protein kinase kinase kinase 19 (MAP3K19, Homo sapiens, UniProt Q56UN5)", "assay": "binding, competition with immobilised ligand", "setting": "1 µM", "remaining binding": "0%"}
{"target": "Mitogen-activated protein kinase 13 (MAPK13, Homo sapiens, UniProt O15264)", "assay": "binding, competition with immobilised ligand", "setting": "1 µM", "remaining binding": "100%"}
{"target": "Receptor-type tyrosine-protein kinase FLT3 (FLT3, Homo sapiens, UniProt P36888, D835V)", "assay": "binding", "setting": "1 µM", "remaining binding": "1.2%"}
{"target": "Dual specificity mitogen-activated protein kinase kinase 3 (MAP2K3, Homo sapiens, UniProt P46734)", "assay": "binding", "setting": "1 µM", "remaining binding": "14%"}
{"target": "Proto-oncogene tyrosine-protein kinase Src (SRC, Homo sapiens, UniProt P12931)", "assay": "binding, competition with immobilised ligand", "setting": "1 µM", "remaining binding": "100%"}
{"target": "Ribosomal protein S6 kinase alpha-6, C-terminal kinase domain (RPS6KA6, Homo sapiens, UniProt Q9UK32)", "assay": "binding, competition with immobilised ligand", "setting": "1 µM", "remaining binding": "84%"}
{"target": "Rhodopsin kinase GRK7 (GRK7, Homo sapiens, UniProt Q8WTQ7)", "assay": "binding", "setting": "1 µM", "remaining binding": "100%"}
{"target": "Platelet-derived growth factor receptor alpha (PDGFRA, Homo sapiens, UniProt P16234)", "assay": "DiscoverX cell-free binding", "setting": "1000 nM", "remaining binding": "2%"}
{"target": "Calcium/calmodulin-dependent protein kinase kinase 1 (CAMKK1, Homo sapiens, UniProt Q8N5S9)", "assay": "binding", "setting": "1 µM", "remaining binding": "28%"}
{"target": "RAF proto-oncogene serine/threonine-protein kinase (RAF1, Homo sapiens, UniProt P04049)", "assay": "binding, competition with immobilised ligand", "setting": "1 µM", "remaining binding": "90%"}
{"data": "Sample 3", "Structure (SMILES)": "O=C(NCc1ncc(C(F)(F)F)cc1Cl)c1ccc2c(c1)C1(CCS(=O)(=O)CC1)[C@H](C1CC1)N2S(=O)(=O)c1ccc(F)cc1", "technique": "competition with immobilised ligand", "concentration": "1 µM"}
{"target": "Tyrosine-protein kinase ABL1, non-phosphorylated (ABL1, Homo sapiens, UniProt P00519, F317I)", "assay": "binding", "remaining binding [%]": 83}
{"target": "Mast/stem cell growth factor receptor Kit (KIT, Homo sapiens, UniProt P10721, T670I/V559D)", "assay": "cell-free assay", "remaining binding [%]": 100}
{"target": "Phosphatidylinositol 5-phosphate 4-kinase type-2 beta (PIP4K2B, Homo sapiens, UniProt P78356)", "assay": "cell-free assay", "remaining binding [%]": 89}
{"target": "Serine/threonine-protein kinase PAK 3 (PAK3, Homo sapiens, UniProt O75914)", "assay": "cell-free assay", "remaining binding [%]": 91}
{"target": "Mitogen-activated protein kinase kinase kinase kinase 5 (MAP4K5, Homo sapiens, UniProt Q9Y4K4)", "assay": "cell-free assay", "remaining binding [%]": 82}
{"target": "Serine/threonine-protein kinase 32C (STK32C, Homo sapiens, UniProt Q86UX6)", "assay": "cell-free assay", "remaining binding [%]": 100}
{"target": "Tyrosine-protein kinase ABL1, phosphorylated (ABL1, Homo sapiens, UniProt P00519, F317L)", "assay": "cell-free assay", "remaining binding [%]": 88}
{"target": "Microtubule-associated serine/threonine-protein kinase 1 (MAST1, Homo sapiens, UniProt Q9Y2H9)", "assay": "cell-free assay", "remaining binding [%]": 54}
{"target": "Mitogen-activated protein kinase 3 (MAPK3, Homo sapiens, UniProt P27361)", "assay": "cell-free assay", "remaining binding [%]": 100}
{"data": "Sample 4", "target": "Tyrosine-protein kinase Yes (YES1, Homo sapiens, UniProt P07947)", "read-out": "enzyme activity", "mode": "inhibitor", "concentration": "0.5 µM", "reference": "control", "UniProt P07947, sequence (whole entry, looked up)": "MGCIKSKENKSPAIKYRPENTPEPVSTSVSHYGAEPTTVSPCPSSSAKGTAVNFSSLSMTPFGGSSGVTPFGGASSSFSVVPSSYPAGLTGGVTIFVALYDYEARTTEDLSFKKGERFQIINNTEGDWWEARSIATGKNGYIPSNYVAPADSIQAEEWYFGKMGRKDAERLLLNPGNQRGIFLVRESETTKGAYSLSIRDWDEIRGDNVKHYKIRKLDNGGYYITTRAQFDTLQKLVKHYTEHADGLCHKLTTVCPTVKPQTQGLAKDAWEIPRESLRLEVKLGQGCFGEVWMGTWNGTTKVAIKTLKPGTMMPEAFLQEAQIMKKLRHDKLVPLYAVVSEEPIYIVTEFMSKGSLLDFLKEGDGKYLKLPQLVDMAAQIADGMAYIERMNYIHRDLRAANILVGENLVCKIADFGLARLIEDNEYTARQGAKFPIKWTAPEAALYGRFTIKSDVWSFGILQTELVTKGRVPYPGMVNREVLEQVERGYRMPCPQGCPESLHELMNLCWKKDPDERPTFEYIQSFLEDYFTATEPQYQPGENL"}
{"Structure (SMILES)": "COc1cc2c(cc1OC)-c1[nH]nc(Nc3cccc(F)c3)c1C2", "remaining activity": "61.3%"}
{"Structure (SMILES)": "Cc1cn(-c2cc(NC(=O)c3ccc(C)c(Nc4nccc(-c5cccnc5)n4)c3)cc(C(F)(F)F)c2)cn1", "remaining activity": "66.1%"}
{"Structure (SMILES)": "CCN(CC)CCNC(=O)c1c(C)[nH]c(/C=C2\\C(=O)Nc3ccc(F)cc32)c1C", "remaining activity": "5.91%"}
{"Structure (SMILES)": "Nc1cccc(-c2cc3c(Oc4cccc(O)c4)ncnc3[nH]2)c1", "remaining activity": "6.05%"}
{"Structure (SMILES)": "O=C(NC(NC(=S)Nc1ccc(F)c([N+](=O)[O-])c1)C(Cl)(Cl)Cl)C(c1ccccc1)c1ccccc1 (centres unmarked)", "remaining activity": "94.6%"}
{"Structure (SMILES)": "O=C1C(Cl)=C(N2C(=O)CCC2=O)C(=O)c2ccccc21", "remaining activity": "103%"}
{"Structure (SMILES)": "Cc1nc2cc3nc(-c4cccs4)cnc3cc2n1C", "remaining activity": "66.9%"}
{"Structure (SMILES)": "CCN(CC)CCNC(=O)c1c(C)[nH]c(/C=C2\\C(=O)Nc3ccc(Cl)cc32)c1C", "remaining activity": "5.29%"}
{"Structure (SMILES)": "CCN(CC)C(=O)c1ccc(Nc2nc(OCC3CCCCC3)c3[nH]cnc3n2)cc1", "remaining activity": "15.4%"}
{"Structure (SMILES)": "CN(C)C[C@H]1CCn2c(c(C3=C(c4cn(C)c5ccccc45)C(=O)NC3=O)c3ccccc32)C1", "remaining activity": "95.3%"}
{"Structure (SMILES)": "O=C1c2ccccc2-c2n[nH]c3cccc1c23", "remaining activity": "88.2%"}
{"Structure (SMILES)": "Cc1cc2ncc(-c3ccccc3)nc2cc1C", "remaining activity": "102%"}
{"Structure (SMILES)": "COc1cc2ncnc(Nc3cccc(Cl)c3)c2cc1OC", "remaining activity": "59.9%"}
{"Structure (SMILES)": "CCOc1nc(NC(=O)Cc2cc(OC)ccc2OC)cc(N)c1C#N", "remaining activity": "99.2%"}
{"Structure (SMILES)": "C[C@@H]1CCN(C(=O)CC#N)C[C@@H]1N(C)c1ncnc2[nH]ccc12", "remaining activity": "87.1%"}
{"Structure (SMILES)": "COc1cc2ncnc(Nc3ccc(O)c(Br)c3)c2cc1OC", "remaining activity": "34.6%"}
{"Structure (SMILES)": "c1ccc(-c2cnc(Nc3ccc(OCCN4CCCC4)cc3)s2)cc1", "remaining activity": "42.1%"}
{"Structure (SMILES)": "Cn1nc2c3c(cccc31)C(=O)c1ccccc1-2", "remaining activity": "94.5%"}
{"Structure (SMILES)": "Ic1cccc(CSc2nnc(-c3ccncc3)o2)c1", "remaining activity": "95.7%"}
{"Structure (SMILES)": "CN([C@@H](Cc1ccc(OS(=O)(=O)c2cccc3cnccc23)cc1)C(=O)N1CCN(c2ccccc2)CC1)S(=O)(=O)c1cccc2cnccc12", "remaining activity": "110%"}
{"Structure (SMILES)": "N#C/C(=C\\c1ccc(O)c(O)c1)C(=O)NCc1ccccc1", "remaining activity": "103%"}
{"Structure (SMILES)": "c1ccc(-c2[nH]ncc2-c2ccnc3ccccc23)nc1", "remaining activity": "93.3%"}
{"Structure (SMILES)": "O=C(Nc1cccc(Nc2nccc(Nc3cccc(C(F)(F)F)c3)n2)c1)C1CC1", "remaining activity": "78.9%"}
{"Structure (SMILES)": "N#Cc1c(NC(=O)c2cccc3ccccc23)sc2c1CCCC2", "remaining activity": "104%"}
{"note": "Excerpt of the above (sample 4):"}
{"Structure (SMILES)": "Ic1cccc(CSc2nnc(-c3ccncc3)o2)c1", "remaining activity": "95.7%"}
{"Structure (SMILES)": "CCN(CC)C(=O)c1ccc(Nc2nc(OCC3CCCCC3)c3[nH]cnc3n2)cc1", "remaining activity": "15.4%"}
{"Structure (SMILES)": "O=C(Nc1cccc(Nc2nccc(Nc3cccc(C(F)(F)F)c3)n2)c1)C1CC1", "remaining activity": "78.9%"}
{"Structure (SMILES)": "c1ccc(-c2cnc(Nc3ccc(OCCN4CCCC4)cc3)s2)cc1", "remaining activity": "42.1%"}
{"Structure (SMILES)": "CCN(CC)CCNC(=O)c1c(C)[nH]c(/C=C2\\C(=O)Nc3ccc(Cl)cc32)c1C", "remaining activity": "5.29%"}
{"Structure (SMILES)": "Cc1cc2ncc(-c3ccccc3)nc2cc1C", "remaining activity": "102%"}
